Measurements of several laboratories.
Parts stem from different laboratories: compare values within a part only.

Series 1 — technique: universal PBM; form: double-stranded DNA, one strand shown; medium: in vitro; concentration: not given; reading: higher = stronger binding
Target: Sal-like protein 4, full length isoform B (SALL4, Homo sapiens, UniProt Q9UJQ4-2, residues 1-616)
Notes: 8-mer, flanks averaged, mean of replicates
| Sequence | E-score |
| --- | --- |
| ATTGTAGG | 0.271 |
| TAGCCCCA | -0.142 |
| GTGGGGCA | -0.328 |
| ACAAGCTC | -0.109 |
| CACACAAA | 0.169 |
| GAGCATAA | 0.165 |
| CGCACAGC | -0.295 |
| CAGGCCTC | -0.32 |
| TATTGTGA | 0.196 |
| TACTAAGA | 0.064 |
| GTTCATGA | 0.0682 |
| CAGCCGTA | -0.203 |
| ATACTTAG | 0.12 |
| ATCAGGGA | -0.0619 |
| GCTGCACC | -0.314 |
| ACATCCGC | -0.107 |
| GATCGTGC | -0.0255 |
| AATTCTAC | 0.129 |

Series 2 — technique: protein-binding microarray; form: double-stranded DNA, one strand shown; medium: in vitro; concentration: 940 nM top; notes: 60-bp whole probe; added: salmon DNA 0.4 mg/ml; baseline: random background probes; reading: higher = stronger binding; all sequences stand within: GCCTAGCAC … GTCTTGATTCGCTTGACGCTGCTG
Target: Interferon regulatory factor 5, full length, phosphomimetic (IRF5, Homo sapiens, UniProt Q13568-2, residues 1-514, S451D/S453D/S456D/S462D)
| Sequence | fitted relative affinity |
| --- | --- |
| CTGGATCTCAGACTGTGTCCGTGCTAG | -0.534 z-score |
| GACGATCTCAGTCTCAAGACGTGCTAG | 0.347 z-score |
| GACGGTATCGGCACTGGGGACGTGCTA | 3.06 z-score |
| TTAGATCTCATTATCGATTAGTGCTAG | 1.13 z-score |
| TTAGGTATCCTTCTGCTTTAGTGCTAG | 0.729 z-score |
| ACTTAAACTAGAAACTGACTTGTGCTA | 0.289 z-score |
| GACGATATCCGTTTCGAGACGTGCTAG | 1.13 z-score |
| GACGGACTGGACGATCGGGACGTGCTA | -0.426 z-score |
| GACGGTATCGACTATCGGGAGGTGCTA | 5 z-score |
| GACTGTCTCCTTCTCCTGACGTGCTAG | 0.619 z-score |
| GACGATTTCGGGACCGGAGACGTGCTA | 0.168 z-score |
| TTAAGTCTCCTTTTCCTTTAGTGCTAG | 1.2 z-score |

Series 3 — technique: RNA Bind-n-Seq; form: RNA; medium: in vitro; concentration: not given; baseline: input RNA pool; reading: higher = stronger binding
Target: RING finger protein unkempt homolog, zinc fingers 1-6, GST-SBP tag (UNK, Homo sapiens, UniProt Q9C0B0, residues 30-357)
UniProt Q9C0B0, sequence (30-357, looked up): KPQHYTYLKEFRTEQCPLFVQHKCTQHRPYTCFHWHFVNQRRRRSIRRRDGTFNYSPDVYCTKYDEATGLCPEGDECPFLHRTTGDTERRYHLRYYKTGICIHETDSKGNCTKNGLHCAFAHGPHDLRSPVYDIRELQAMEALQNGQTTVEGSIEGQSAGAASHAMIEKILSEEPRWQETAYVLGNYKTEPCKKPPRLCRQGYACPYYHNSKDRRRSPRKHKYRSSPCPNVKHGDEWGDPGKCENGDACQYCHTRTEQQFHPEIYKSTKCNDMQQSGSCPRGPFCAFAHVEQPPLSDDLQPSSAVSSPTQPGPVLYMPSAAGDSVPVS
Notes: RNA with constant flanks, human and mouse sites, ends assumed
| Sequence | bound/input enrichment |
| --- | --- |
| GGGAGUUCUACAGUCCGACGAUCCCAGUAUGUGUGUGCAUUAGUCACAUUCCUCUCUGUUCUGUUGAAGGAAAAAGAGACAUUUUAACCCUUUUAAGGUUGACUUUAUUUUAUGUUAUUUGGUUGCAUGAAGUUGCCCUUAAUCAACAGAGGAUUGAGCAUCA | 0.174 ratio |
| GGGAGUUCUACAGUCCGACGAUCAAGAAAAUAGUGGUGUGAUUUGGGGAUAUUUUUUUCUUUUCUUUUCUUUUCUUUUUUUUUUUUUUUGACAAGGGGCAGUGGUGGUUUUCUGUUCUUUCUGGCUAUGCAUUUGAAAAUUUUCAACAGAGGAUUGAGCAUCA | 1.05 ratio |
| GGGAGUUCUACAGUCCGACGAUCAGUGAAUGGAAGAGACGUGAUGAAGAGCGAAGGCGUGAGCUGGAGGCUCGGAGGCGACGGGAGCAGGAGGAAGAGCUCCGGAGACUUCGAGAACAGGAGAGGGAGGAGAAGGAGCGGCGCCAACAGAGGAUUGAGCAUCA | 0.358 ratio |
| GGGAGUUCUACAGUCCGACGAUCAAGGAACUGCAGGUUGAACUGUCUGGCUGAAGCAAUGGCGGGUAUGGCAAGCCCCUCCCAUAGUAAAUCCCCCUGCCUAUAUUAUAAUGGAUCAUGCGAUAUCAGUAUGGGAAGUGUAUGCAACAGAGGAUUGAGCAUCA | 1.67 ratio |
| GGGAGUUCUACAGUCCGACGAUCCAUAUUGUAUGUAGAGAAAAAUUUUCAUUGACUCCCAUUGUGGAAUUCCCUAGCAAUUUAUUUAGACUUAAUUUUUUAAAUUCAAGCUUACUGUAUUAGUCAUUUUUAGCCCAUAAUUAACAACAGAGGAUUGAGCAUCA | 703 ratio |
| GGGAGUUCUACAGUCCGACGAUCAUCAAGCAGCUGUUGCAAUCUGCCCACAAAGAAUCCAGCUUUGACAUUAUUUUGUCAGGUUUAGUCCCAGGAAGCACCACUCUGCACAGUGCUGAGAUUUUGGCUGAAAUCGCCCGGAUCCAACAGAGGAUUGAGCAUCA | 0.179 ratio |
| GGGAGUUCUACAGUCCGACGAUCAGCAUGAAAUUGUUUGACAGCAUAUGUAACAACAAGUGGUUUACAGAUACAUCCAUUAUACUUUUUCUAAACAAGAAGGAUCUCUUUGAAGAAAAAAUCAAAAAGAGCCCUCUCACUAUACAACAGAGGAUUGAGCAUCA | 0.213 ratio |
| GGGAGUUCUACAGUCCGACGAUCCACUCUUCUCCCUGUUUCUAUUCCCUGACCCCUGAGUAGCUGUAGUUUCCCCUGUAGCUUUAGCUAAAUAUCAAGCAACUCCACAAGCUUCUUAAGAAGCCAUGGACACCAAGUAGCACACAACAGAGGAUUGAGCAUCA | 2.17 ratio |

Series 4 — technique: RNA Bind-n-Seq; form: RNA; medium: in vitro; concentration: 1 µM; notes: whole 134-nt RNA, ends assumed; added: 150 mM KCl; baseline: input library; reading: higher = stronger binding
Target: Ras GTPase-activating protein-binding protein 1, C-terminal RGG region (G3BP1, Homo sapiens, UniProt Q13283)
UniProt Q13283, sequence (whole entry, looked up): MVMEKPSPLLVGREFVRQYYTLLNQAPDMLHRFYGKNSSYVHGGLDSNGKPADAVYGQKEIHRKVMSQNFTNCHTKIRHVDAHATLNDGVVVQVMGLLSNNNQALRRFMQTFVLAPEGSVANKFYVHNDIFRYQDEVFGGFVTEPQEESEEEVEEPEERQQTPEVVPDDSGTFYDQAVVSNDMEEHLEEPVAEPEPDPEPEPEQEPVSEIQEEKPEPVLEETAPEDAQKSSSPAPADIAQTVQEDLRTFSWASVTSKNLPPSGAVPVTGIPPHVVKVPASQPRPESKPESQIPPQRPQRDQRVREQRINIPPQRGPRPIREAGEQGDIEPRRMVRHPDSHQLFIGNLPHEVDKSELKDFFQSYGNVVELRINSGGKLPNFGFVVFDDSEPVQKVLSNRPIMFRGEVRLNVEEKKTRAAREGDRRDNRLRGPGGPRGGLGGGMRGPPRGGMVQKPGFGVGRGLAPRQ
| Sequence | log2 enrichment |
| --- | --- |
| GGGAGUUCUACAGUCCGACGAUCGUCCUGUGCUACACAUCGUAUGUACCGAAUCGGGGUUUUUGGUUUUUGGGGUUUUUGGAAAGUAUUAUGUUACGCCGUUCGGAUCUGCACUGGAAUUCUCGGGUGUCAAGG | -1.05 |
| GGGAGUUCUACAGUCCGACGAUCCCUCAAGUCCUGUGCUACACAUCGUAUGUACCGAAUCGGAAAGGAGGAAAGGAAAGUAUUAUGUUACGCCGUUCGGAUCUGCACUUCCAGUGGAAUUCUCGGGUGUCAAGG | -0.85 |
| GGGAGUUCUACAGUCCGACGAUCGCAGGAAGUAAAAACAAAUGGAAAUGCUUCGGAUAGUGGCAGGGGUGGGGGUUGCUAAGGAAAGGGUGGGAUGGGAGUGGGUAAAGAGGUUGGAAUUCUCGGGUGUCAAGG | 1.63 |
| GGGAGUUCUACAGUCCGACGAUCUGGCCCUGGUGGCAUGCGGGGAUGAAGAGGUGGCCUCAUGGAUCGUGGUGGUCCCGGUGGAAUGUUCAGAGGUGGCCGUGGUGGAGACAGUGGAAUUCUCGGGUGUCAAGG | 2.04 |
| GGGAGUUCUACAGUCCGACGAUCCUCAAGUCCUGUGCUACACAUCGUAUGUACCGAAUCGGAAAAAGGAAAGGAGGAAAGUAUUAUGUUACGCCGUUCGGAUCUGCACUUCCAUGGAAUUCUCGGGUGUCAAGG | -1.68 |

Series 5 — technique: protein binding microarray; form: double-stranded DNA, one strand shown; medium: in vitro; concentration: not given; baseline: not given; reading: higher = stronger binding
Target: Histone acetyltransferase KAT6A, both winged helices, GST fusion (KAT6A, Homo sapiens, UniProt Q92794, residues 1-181)
Notes: 8-mer, flanks averaged, mean of 2 arrays, mostly near background
Target sequence (chain): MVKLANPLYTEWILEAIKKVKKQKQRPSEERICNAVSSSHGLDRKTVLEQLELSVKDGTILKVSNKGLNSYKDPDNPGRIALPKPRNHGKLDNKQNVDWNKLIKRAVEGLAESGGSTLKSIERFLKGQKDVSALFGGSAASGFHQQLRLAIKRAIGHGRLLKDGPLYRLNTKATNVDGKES
| Sequence | E-score |
| --- | --- |
| GTGGCAGA | -0.161 |
| AAGACGAT | -0.0434 |
| ACTGATAA | -0.0861 |
| CCAACGCA | 0.083 |
| GGCGGGGA | 0.211 |
| AGCAATGC | -0.0702 |
| GAAACTTA | -0.0164 |
| CAGCCTAA | -0.241 |
| AGAGCCGG | 0.166 |
| CACCCGAA | 0.0906 |
| ATCAAACC | 0.0525 |
| AGGATTCG | -0.09 |
| ACGCCCGC | 0.276 |
| TATGTACA | -0.0617 |
| AGTAGTCG | 0.0645 |
| CTCGAGGA | -0.194 |
| GTCCCGAA | -0.0536 |
| AGGCTTAG | -0.113 |
| AGGAGTGC | -0.0821 |
| AGTTAGGG | -0.155 |

A few entries again (series 2):
| Sequence | fitted relative affinity |
| --- | --- |
| ACTTAAACTAGAAACTGACTTGTGCTA | 0.289 z-score |
| GACGATCTCAGTCTCAAGACGTGCTAG | 0.347 z-score |
| GACGATTTCGGGACCGGAGACGTGCTA | 0.168 z-score |
| GACGATATCCGTTTCGAGACGTGCTAG | 1.13 z-score |
| CTGGATCTCAGACTGTGTCCGTGCTAG | -0.534 z-score |
| TTAAGTCTCCTTTTCCTTTAGTGCTAG | 1.2 z-score |
| GACGGTATCGGCACTGGGGACGTGCTA | 3.06 z-score |
| GACGGTATCGACTATCGGGAGGTGCTA | 5 z-score |
| GACTGTCTCCTTCTCCTGACGTGCTAG | 0.619 z-score |
